Measurements of several laboratories.
Each line is one published result; not all experiments were run side by side.
SLC6A4: Sodium-dependent serotonin transporter (SLC6A4, Homo sapiens, UniProt P31645)
SCN1A: Sodium channel protein type 1 subunit alpha (SCN1A, Homo sapiens, UniProt P35498)
PTGS2: Prostaglandin G/H synthase 2 (PTGS2, Homo sapiens, UniProt P35354)
Chain of UniProt P35354 (whole entry, looked up): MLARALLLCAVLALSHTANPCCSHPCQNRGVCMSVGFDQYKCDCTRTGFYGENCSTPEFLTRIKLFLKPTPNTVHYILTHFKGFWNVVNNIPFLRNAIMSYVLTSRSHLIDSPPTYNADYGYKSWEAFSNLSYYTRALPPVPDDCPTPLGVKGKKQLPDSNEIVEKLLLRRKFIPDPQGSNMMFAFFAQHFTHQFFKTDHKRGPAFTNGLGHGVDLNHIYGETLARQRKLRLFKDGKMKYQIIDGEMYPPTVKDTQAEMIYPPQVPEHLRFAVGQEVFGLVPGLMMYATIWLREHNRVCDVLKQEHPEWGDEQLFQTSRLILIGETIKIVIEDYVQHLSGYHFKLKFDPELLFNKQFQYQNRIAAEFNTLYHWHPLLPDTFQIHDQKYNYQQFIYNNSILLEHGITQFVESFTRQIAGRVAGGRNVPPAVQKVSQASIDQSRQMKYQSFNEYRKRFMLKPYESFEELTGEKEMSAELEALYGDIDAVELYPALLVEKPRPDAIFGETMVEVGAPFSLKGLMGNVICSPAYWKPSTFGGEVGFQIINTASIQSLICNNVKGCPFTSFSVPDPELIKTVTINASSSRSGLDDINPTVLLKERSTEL
SIRT6: NAD-dependent protein deacylase sirtuin-6 (SIRT6, Homo sapiens, UniProt Q8N6T7)
Chain of UniProt Q8N6T7 (whole entry, looked up): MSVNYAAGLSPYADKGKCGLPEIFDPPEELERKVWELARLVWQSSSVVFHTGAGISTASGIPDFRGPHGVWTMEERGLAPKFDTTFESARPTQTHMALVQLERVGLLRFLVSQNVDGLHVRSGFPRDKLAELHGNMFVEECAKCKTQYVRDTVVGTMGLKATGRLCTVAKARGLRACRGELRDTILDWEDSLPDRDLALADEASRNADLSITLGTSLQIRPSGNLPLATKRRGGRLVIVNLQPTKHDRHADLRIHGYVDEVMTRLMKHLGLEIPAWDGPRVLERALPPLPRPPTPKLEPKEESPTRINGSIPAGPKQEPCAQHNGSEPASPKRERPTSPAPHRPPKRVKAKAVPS
USP51: Ubiquitin carboxyl-terminal hydrolase 51 (USP51, Homo sapiens, UniProt Q70EK9)
Chain of UniProt Q70EK9 (whole entry, looked up): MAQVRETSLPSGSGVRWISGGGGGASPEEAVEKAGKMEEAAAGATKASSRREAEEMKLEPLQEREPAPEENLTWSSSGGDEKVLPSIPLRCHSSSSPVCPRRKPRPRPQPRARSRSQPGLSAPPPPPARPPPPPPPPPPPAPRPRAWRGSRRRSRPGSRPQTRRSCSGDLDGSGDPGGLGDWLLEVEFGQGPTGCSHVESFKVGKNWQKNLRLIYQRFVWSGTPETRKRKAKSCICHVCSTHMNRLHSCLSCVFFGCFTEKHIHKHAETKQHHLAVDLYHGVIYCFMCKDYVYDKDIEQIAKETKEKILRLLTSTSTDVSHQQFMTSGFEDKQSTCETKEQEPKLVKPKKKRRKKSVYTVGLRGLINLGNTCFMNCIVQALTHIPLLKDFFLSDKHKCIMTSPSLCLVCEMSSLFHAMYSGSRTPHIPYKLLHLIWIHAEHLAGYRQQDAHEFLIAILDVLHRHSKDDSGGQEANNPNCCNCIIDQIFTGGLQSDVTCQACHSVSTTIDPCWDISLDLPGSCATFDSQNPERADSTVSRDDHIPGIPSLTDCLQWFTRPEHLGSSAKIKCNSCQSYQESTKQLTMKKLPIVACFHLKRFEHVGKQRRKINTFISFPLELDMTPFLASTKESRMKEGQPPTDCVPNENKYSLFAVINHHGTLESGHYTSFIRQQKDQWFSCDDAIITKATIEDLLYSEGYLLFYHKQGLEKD
HDAC1: Histone deacetylase 1 (HDAC1, Homo sapiens, UniProt Q13547)
Chain of UniProt Q13547 (whole entry, looked up): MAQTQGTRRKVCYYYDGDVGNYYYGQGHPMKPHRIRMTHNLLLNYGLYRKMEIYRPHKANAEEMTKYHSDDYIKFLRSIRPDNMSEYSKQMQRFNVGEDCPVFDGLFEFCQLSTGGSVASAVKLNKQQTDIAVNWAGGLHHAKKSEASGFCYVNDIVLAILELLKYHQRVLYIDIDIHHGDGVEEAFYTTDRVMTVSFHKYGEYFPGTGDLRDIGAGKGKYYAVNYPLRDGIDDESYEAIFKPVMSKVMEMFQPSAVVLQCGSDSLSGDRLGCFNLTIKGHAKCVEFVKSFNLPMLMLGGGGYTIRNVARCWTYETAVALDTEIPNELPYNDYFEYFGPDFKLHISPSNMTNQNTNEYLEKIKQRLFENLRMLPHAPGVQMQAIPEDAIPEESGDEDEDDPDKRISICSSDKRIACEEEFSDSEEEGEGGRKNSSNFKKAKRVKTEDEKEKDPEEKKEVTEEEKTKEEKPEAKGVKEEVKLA
HDAC6: Protein deacetylase HDAC6 (HDAC6, Homo sapiens, UniProt Q9UBN7)
Chain of UniProt Q9UBN7 (whole entry, looked up): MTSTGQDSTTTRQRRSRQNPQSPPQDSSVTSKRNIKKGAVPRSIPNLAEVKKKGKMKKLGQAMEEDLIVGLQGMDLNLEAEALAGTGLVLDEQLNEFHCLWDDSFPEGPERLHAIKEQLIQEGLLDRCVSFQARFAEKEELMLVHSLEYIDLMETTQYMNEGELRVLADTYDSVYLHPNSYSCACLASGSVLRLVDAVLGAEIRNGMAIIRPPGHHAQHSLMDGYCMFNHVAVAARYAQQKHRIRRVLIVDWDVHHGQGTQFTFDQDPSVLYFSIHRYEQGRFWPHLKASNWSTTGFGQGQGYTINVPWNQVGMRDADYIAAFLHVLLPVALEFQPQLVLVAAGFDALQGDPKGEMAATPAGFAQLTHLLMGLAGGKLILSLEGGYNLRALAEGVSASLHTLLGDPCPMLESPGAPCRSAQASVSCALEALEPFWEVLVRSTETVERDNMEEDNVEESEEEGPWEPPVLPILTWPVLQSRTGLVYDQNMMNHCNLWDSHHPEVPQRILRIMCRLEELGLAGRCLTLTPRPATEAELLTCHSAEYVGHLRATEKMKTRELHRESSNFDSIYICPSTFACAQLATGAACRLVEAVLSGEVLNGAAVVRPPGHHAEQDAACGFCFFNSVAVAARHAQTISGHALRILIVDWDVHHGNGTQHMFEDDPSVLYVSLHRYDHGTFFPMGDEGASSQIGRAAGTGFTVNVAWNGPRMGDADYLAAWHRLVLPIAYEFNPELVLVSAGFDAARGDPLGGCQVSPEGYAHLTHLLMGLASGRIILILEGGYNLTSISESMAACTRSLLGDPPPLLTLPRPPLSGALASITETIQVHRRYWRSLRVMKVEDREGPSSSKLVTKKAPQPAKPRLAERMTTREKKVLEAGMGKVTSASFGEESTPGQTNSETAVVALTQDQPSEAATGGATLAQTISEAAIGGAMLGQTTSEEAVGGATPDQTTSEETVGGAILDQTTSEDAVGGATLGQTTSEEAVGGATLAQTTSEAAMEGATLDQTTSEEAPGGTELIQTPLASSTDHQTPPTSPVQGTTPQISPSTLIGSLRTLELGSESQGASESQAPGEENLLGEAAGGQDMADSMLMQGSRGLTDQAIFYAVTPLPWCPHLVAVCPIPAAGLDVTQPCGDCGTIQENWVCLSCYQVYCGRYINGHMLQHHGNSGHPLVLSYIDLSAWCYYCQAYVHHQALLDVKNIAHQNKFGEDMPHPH
GSK3B: Glycogen synthase kinase-3 beta (GSK3B, Homo sapiens, UniProt P49841)
Chain of UniProt P49841 (whole entry, looked up): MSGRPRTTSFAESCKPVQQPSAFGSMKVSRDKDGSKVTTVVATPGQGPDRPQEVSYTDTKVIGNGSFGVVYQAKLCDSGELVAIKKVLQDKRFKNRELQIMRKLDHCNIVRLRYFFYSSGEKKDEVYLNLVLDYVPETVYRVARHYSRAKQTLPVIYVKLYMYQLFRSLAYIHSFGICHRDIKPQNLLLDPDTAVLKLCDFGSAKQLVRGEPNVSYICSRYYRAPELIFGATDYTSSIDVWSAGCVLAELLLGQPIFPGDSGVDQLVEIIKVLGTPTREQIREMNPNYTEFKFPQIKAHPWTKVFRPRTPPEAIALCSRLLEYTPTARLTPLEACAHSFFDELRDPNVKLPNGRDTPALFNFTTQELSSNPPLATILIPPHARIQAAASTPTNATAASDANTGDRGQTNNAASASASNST
PDE10A: cAMP and cAMP-inhibited cGMP 3',5'-cyclic phosphodiesterase 10A (PDE10A, Homo sapiens, UniProt Q9Y233)
Chain of UniProt Q9Y233 (whole entry, looked up): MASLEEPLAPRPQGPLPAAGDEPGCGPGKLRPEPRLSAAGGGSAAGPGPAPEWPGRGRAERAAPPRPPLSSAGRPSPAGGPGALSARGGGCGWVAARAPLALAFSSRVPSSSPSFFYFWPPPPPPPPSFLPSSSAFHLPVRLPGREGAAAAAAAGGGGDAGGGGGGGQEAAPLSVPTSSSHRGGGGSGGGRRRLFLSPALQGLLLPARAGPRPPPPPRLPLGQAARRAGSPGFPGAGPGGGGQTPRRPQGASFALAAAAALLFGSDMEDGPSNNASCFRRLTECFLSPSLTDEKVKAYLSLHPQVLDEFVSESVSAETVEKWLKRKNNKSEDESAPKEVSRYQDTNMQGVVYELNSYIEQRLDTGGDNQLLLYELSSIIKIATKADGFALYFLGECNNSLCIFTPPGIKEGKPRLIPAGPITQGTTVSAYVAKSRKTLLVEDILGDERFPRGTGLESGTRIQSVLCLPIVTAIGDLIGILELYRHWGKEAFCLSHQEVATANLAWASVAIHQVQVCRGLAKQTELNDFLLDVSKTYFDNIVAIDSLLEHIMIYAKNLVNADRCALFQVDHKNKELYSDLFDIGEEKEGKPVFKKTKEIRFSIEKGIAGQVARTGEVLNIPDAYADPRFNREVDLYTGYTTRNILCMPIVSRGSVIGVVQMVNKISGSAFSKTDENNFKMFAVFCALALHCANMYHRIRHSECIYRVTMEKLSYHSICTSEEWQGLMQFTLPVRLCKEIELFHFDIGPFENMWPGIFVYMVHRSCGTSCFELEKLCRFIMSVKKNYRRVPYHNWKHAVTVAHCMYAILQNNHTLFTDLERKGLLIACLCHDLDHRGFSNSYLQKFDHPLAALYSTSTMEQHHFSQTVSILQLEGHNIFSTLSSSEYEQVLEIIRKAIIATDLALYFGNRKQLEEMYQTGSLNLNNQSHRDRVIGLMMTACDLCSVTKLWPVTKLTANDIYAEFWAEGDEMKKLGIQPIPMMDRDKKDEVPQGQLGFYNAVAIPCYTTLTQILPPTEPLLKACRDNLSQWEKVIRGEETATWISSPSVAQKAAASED
Chain of UniProt P00374 (whole entry, looked up): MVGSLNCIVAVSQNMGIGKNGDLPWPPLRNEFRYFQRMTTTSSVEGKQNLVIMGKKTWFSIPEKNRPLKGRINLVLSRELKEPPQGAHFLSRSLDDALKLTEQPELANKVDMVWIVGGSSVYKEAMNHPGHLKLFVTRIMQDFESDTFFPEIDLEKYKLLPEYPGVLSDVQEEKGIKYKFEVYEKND

CCOC(=O)C12CC1C(n1ccc3c(NC4CC4)nc(C#Cc4ccccc4)nc31)C(O)C2O (stereo not shown)  inhibition (SLC6A4; ligand displacement, radioligand; 10 µM): -18%
Cn1c(=O)c2[nH]cnc2n(C)c1=O  inhibition (SCN1A; ion current, inhibitor, patch clamp; 30 µM): 4.59%
COC(=O)c1ccc(O)cc1  inhibition (PTGS2; enzyme activity, inhibitor; 1.95 µg/mL): 0%
O=C(NOCc1ccc(C(F)(F)F)cc1)c1ccc(CO)cc1  inhibition (SIRT6; enzyme activity, inhibitor, fluorescence; 100 µM): 84.2%
COc1cc([C@@H]2c3cc4c(cc3[C@H](O)[C@H]3COC(=O)[C@@H]23)OCO4)cc(OC)c1OC  inhibition (USP51; enzyme activity, inhibitor; 5 µM): 44%
C#Cc1cc(-c2cc(Nc3nc(N[C@@H](C)c4ccc(F)cn4)ncc3Cl)n[nH]2)ccc1C=O  inhibition (PKN3 (Homo sapiens, UniProt Q6P5Z2); enzyme activity, inhibitor; 0.2 µM): 19%
Cc1cc(C)c(OS(=O)(=O)Oc2cccc(C(=O)NO)c2)c(C)c1  inhibition (HDAC1; enzyme activity, inhibitor, fluorescence; 10 µM): 28%
COc1ccc(-c2cc(=O)c3c(O)cc(O[C@@H]4O[C@H](CO)[C@@H](O)[C@H](O)[C@H]4O)cc3o2)cc1O  inhibition (PTGS2; enzyme activity, inhibitor; 0.49 µg/mL): 51.6%
Cc1cc(C(C)(C)C)ccc1OS(=O)(=O)Oc1cc(F)cc(C(=O)NO)c1  inhibition (HDAC1; enzyme activity, inhibitor, fluorescence; 5 µM): 7%
O=C1Nc2ccccc2/C1=C1/Nc2ccccc2C1=O  inhibition (USP51; enzyme activity, inhibitor; 5 µM): 9%
Cc1cc(C(C)(C)C)ccc1OS(=O)(=O)Oc1cccc(C(=O)NO)c1C  inhibition (HDAC6; enzyme activity, inhibitor, fluorescence; 10 µM): 5%
C=C(C)[C@@H]1CC=C(CO)CC1  inhibition (USP51; enzyme activity, inhibitor; 5 µM): 15%
Nc1nc2[nH]c(C3CCCC3)c(Cc3cccc(Cl)c3)c(=O)n2n1  inhibition (CCR5 (Homo sapiens, UniProt P51681); β-arrestin recruitment, antagonist; 1 µM): 81%
O=C1NC(=O)C(c2ccccc2)(c2ccccc2)N1  inhibition (KCNA1 (Homo sapiens, UniProt Q09470); ion current, inhibitor, patch clamp; 3 µM): 10.5%
CCc1nn(C)c2nc(-c3ccc(C(=O)O)cc3)nc(NCc3ccc(F)cc3)c12  inhibition (Dual specificity calcium/calmodulin-dependent 3',5'-cyclic nucleotide phosphodiesterase 1B (Homo sapiens, UniProt Q01064); enzyme activity, inhibitor, radiometric; 10 µM): 19.1%
C=C1C[C@@]23CC[C@H]4[C@@](C)(CCC[C@@]4(C)C(=O)O[C@@H]4O[C@H](CO)[C@@H](O)[C@H](O)[C@H]4O)[C@@H]2CC[C@]1(O[C@@H]1O[C@H](CO)[C@@H](O)[C@H](O)[C@H]1O[C@@H]1O[C@H](CO)[C@@H](O)[C@H](O[C@@H]2O[C@H](CO)[C@@H](O)[C@H](O)[C@H]2O)[C@H]1O)C3  inhibition (USP51; enzyme activity, inhibitor; 5 µM): 71%
C=C[C@@]1(C)C=C2CC[C@@H]3[C@](C)(CCC[C@@]3(C)C(=O)O)[C@H]2CC1  inhibition (PTGS2; enzyme activity, inhibitor; 31.25 µg/mL): 100%
NC(=O)c1ccc(C(=O)NOCc2ccc(Nc3ccccc3)cc2)cc1  inhibition (SIRT6; enzyme activity, inhibitor, fluorescence; 100 µM): 79.2%
COc1cc([C@H]2OC[C@H]3[C@@H]2CO[C@@H]3c2cc(OC)c(O)c(OC)c2)cc(OC)c1O  inhibition (PTGS2; enzyme activity, inhibitor; 0.12 µg/mL): 6.24%
CC[C@H](C)[C@H](NC(=O)[C@H](CCC(N)=O)NC(=O)[C@@H](NC(=O)[C@H](CCSC)NC(=O)[C@H](CCCCN)NC(=O)[C@H](CO)NC(=O)[C@@H](NC(=O)[C@H](CCSC)NC(=O)[C@H](CC(C)C)NC(=O)[C@H](CC(N)=O)NC(=O)[C@@H](NC(=O)[C@@H](NC(=O)[C@H](CO)NC(=O)[C@H](CC(C)C)NC(=O)[C@H](C)NC(=O)[C@H](CCCNC(=N)N)NC(=O)[C@H](CCC(=O)O)NC(=O)[C@H](Cc1ccc(O)cc1)NC(=O)[C@H](Cc1ccccc1)NC(=O)[C@H](C)NC(=O)[C@H](CC(N)=O)NC(=O)[C@@H](N)CCCCN)[C@@H](C)CC)[C@@H](C)CC)[C@@H](C)O)C(C)C)C(=O)N[C@@H](CC(N)=O)C(=O)N[C@H](C(=O)O)C(C)C  inhibition (GSK3B; enzyme activity, inhibitor, radiometric; 50 µM): -6%
CC(C(=O)O)c1cccc(Oc2ccccc2)c1 (stereo not shown)  inhibition (PTGS1 (Ovis aries, UniProt P05979); enzyme activity, inhibitor, fluorescence; 100 µM): 5%
CC(C)(C)c1cccc(OS(=O)(=O)Oc2cncc(C(=O)NO)c2)c1  inhibition (HDAC1; enzyme activity, inhibitor, fluorescence; 5 µM): 50%
CC[C@H](C)[C@H](NC(=O)[C@H](CCC(N)=O)NC(=O)[C@H](CC(C)C)NC(=O)[C@H](CCSC)NC(=O)[C@H](CCCCN)NC(=O)[C@H](CO)NC(=O)[C@H](CO)NC(=O)[C@H](CCSC)NC(=O)[C@H](CC(C)C)NC(=O)[C@H](CC(N)=O)NC(=O)[C@@H](NC(=O)[C@@H](NC(=O)[C@H](CO)NC(=O)[C@H](CC(C)C)NC(=O)[C@H](CS)NC(=O)[C@H](CCCNC(=N)N)NC(=O)[C@H](CC(=O)O)NC(=O)[C@H](Cc1c[nH]c2ccccc12)NC(=O)[C@H](Cc1ccccc1)NC(=O)[C@H](C)NC(=O)[C@H](CCC(=O)O)NC(=O)[C@@H](N)CCCCN)C(C)C)[C@@H](C)CC)C(=O)N[C@@H](CC(N)=O)C(=O)N[C@@H](C)C(=O)O  inhibition (GSK3B; enzyme activity, inhibitor, radiometric; 1 µM): 3%
Cc1cc(OS(=O)(=O)Oc2ccc(C(C)C)cc2)cc(C(=O)NO)c1  inhibition (HDAC6; enzyme activity, inhibitor, fluorescence; 10 µM): 28%
OC[C@H]1OC(O)[C@H](O)[C@@H](O)[C@@H]1O (stereo partly shown)  inhibition (USP51; enzyme activity, inhibitor; 5 µM): 15%
CNCCCC12CCC(c3ccccc31)c1ccccc12  inhibition (SCN1A; ion current, inhibitor, patch clamp; 10 µM): 28.8%
COc1ccc(Cc2ncnc3cc(OC)c(OC)cc23)cc1  inhibition (PDE10A; enzyme activity, inhibitor, FP; 0.1 µM): 33%
CNc1nc(C#Cc2ccc(Cl)s2)nc2c1ncn2[C@H]1[C@H](O)[C@H](O)[C@]2(CC#N)C[C@H]12  inhibition (SLC6A4; ligand displacement, radioligand; 10 µM, cell membranes): 4%
C[C@H](CCC(=O)O)[C@H]1CC[C@H]2[C@@H]3[C@H](O)C[C@@H]4C[C@H](O)CC[C@]4(C)[C@H]3CC[C@]12C  inhibition (USP51; enzyme activity, inhibitor; 5 µM): 15%
NC/C(=C\F)COc1cccc(Cn2c(=S)[nH]c(=O)c3[nH]cnc32)c1  inhibition (CYSLTR1 (Homo sapiens, UniProt Q9Y271); ligand displacement, radioligand; 10 µM): < 50%
COc1cccc(OS(=O)(=O)Oc2cccc(C(=O)NO)c2)c1  inhibition (HDAC1; enzyme activity, inhibitor, fluorescence; 5 µM): 49%
S=C(NN=Cc1ccc(N2CCCCC2)cc1)NC1CCCCC1  inhibition (DHFR (Homo sapiens, UniProt P00374); enzyme activity, inhibitor; 500 µM): 78.2%
CN1CC(Oc2cnc(C#N)cc2-c2ccn3nc(NC(=O)C4CC4)cc3c2)C1  inhibition (TNK2 (Homo sapiens, UniProt Q07912); enzyme activity, inhibitor; 1 µM): 40%
COc1cc(-c2cc(=O)c3c(O)cc(O)cc3o2)ccc1O  inhibition (PTGS2; enzyme activity, inhibitor; 15.63 µg/mL): 84.2%
O=C1C[C@@H](c2ccc(O)cc2)Oc2cc(O)cc(O)c21  inhibition (USP51; enzyme activity, inhibitor; 5 µM): 97%
O=c1cc(-c2ccc(O)c(O)c2)oc2cc(O)cc(O)c12  inhibition (PTGS2; enzyme activity, inhibitor; 15.63 µg/mL): 100%
O=C(NO)c1cccc(OS(=O)(=O)Oc2cccc(-c3ccccc3)c2)c1  inhibition (HDAC1; enzyme activity, inhibitor, fluorescence; 10 µM): 59%
COc1cc(-c2cncc3c2CN(C)Cc2cc(N4CCNCC4)ccc2-3)cc(OC)c1OC  remaining activity (MAP3K7 (Homo sapiens, UniProt O43318); enzyme activity, inhibitor; 1 µM): 95%
COc1ccc2nccc(Cc3cccc(-c4cnn(C)c4)c3)c2c1  inhibition (PDE10A; enzyme activity, inhibitor, FP; 0.1 µM): 8%
Cc1c(OS(=O)(=O)Oc2ccc(C(F)(F)F)cc2)cccc1C(=O)NO  inhibition (HDAC6; enzyme activity, inhibitor, fluorescence; 10 µM): 31%
CNc1ncc2c(/C=C/C(=O)N3CCC(OC)CC3)nn(Cc3cccc(C(F)(F)F)c3)c2n1  remaining activity (CSNK2A2 (Homo sapiens, UniProt P19784); enzyme activity, inhibitor, radiometric; 1 µM): 109%
C[C@]12CC[C@@H]3c4ccc(O)cc4CC[C@H]3[C@@H]1CC[C@@H]2O  inhibition (USP51; enzyme activity, inhibitor; 5 µM): 12%
COc1ccc(Cc2nccc3ccccc23)cc1OC  inhibition (PDE10A; enzyme activity, inhibitor, FP; 0.1 µM): 0%

Some of these lines once more:
COc1ccc(Cc2ncnc3cc(OC)c(OC)cc23)cc1  inhibition (PDE10A; enzyme activity, inhibitor, FP; 0.1 µM): 33%
CNCCCC12CCC(c3ccccc31)c1ccccc12  inhibition (SCN1A; ion current, inhibitor, patch clamp; 10 µM): 28.8%
COc1ccc(-c2cc(=O)c3c(O)cc(O[C@@H]4O[C@H](CO)[C@@H](O)[C@H](O)[C@H]4O)cc3o2)cc1O  inhibition (PTGS2; enzyme activity, inhibitor; 0.49 µg/mL): 51.6%
Cn1c(=O)c2[nH]cnc2n(C)c1=O  inhibition (SCN1A; ion current, inhibitor, patch clamp; 30 µM): 4.59%
Nc1nc2[nH]c(C3CCCC3)c(Cc3cccc(Cl)c3)c(=O)n2n1  inhibition (CCR5 (Homo sapiens, UniProt P51681); β-arrestin recruitment, antagonist; 1 µM): 81%
NC/C(=C\F)COc1cccc(Cn2c(=S)[nH]c(=O)c3[nH]cnc32)c1  inhibition (CYSLTR1 (Homo sapiens, UniProt Q9Y271); ligand displacement, radioligand; 10 µM): < 50%
